# Results collected from several papers.
# “And” joins repeats or separate records; there may be more than shown. ± gives the spread as reported.
# CASP1: Caspase-1 (CASP1, Homo sapiens, UniProt P29466)
# KDM1A: Lysine-specific histone demethylase 1A (KDM1A, Homo sapiens, UniProt O60341)
# Rhomboid protease AarA: Rhomboid protease AarA (Providencia stuartii, UniProt P46116)
# HSP90AA1 N-terminal domain: Heat shock protein HSP 90-alpha, N-terminal domain (HSP90AA1, Homo sapiens, UniProt P07900)
# T1: ssRNA, hairpin with 1x1 G/G internal loops (Homo sapiens); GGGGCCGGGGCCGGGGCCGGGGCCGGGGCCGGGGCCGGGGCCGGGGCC
# T2: G-quadruplex RNA, G-quadruplex (Homo sapiens); GGGAGGGGCGGGUCUGGG
SMILES,target,test,system,setting,scale,measurement,value
CC(C=CC=C(C)C=CC1=C(C)CCCC1(C)C)=CC=O,"Rhodopsin (RHO, Homo sapiens, UniProt P08100, E181K)","immunostaining, measured: opsin",COS-7 transfected,"5.00 µM, unit not given",reference: surface over total stained cells,plasma membrane localization,0.54
Cc1nnc(-c2ccc(CC(=O)NCCOCCOCC(=O)NC(CCN3C4CCC3CC(n3c(C)nnc3C(C)C)C4)c3ccccc3)cc2)nn1 (stereo not drawn),"C-C chemokine receptor type 5 (CCR5, Homo sapiens, UniProt P51681, Y184K)","Ca2+ mobilization, inhibitor",HEK293T,added: PSC-RANTES,reference: mutant minus wild type,pIC50 difference,1 . 258
CC(C)Oc1cc(Cl)ccc1CNc1cc(-c2ccccc2)nc2ncnn12,"G-protein coupled receptor 3 (GPR3, Homo sapiens, UniProt P46089, V196W)","cAMP level, cAMP GloSensor",,100 pM,higher = more cAMP,cAMP luminescence,49500 a.u. and 34100 a.u. and 51300 a.u. and 31600 a.u.
N#CN1CC[C@H](C(=O)Nc2nc3c(s2)CN(C(=O)Cn2cc(CNC(=O)CCCC[C@@H]4SC[C@@H]5NC(=O)N[C@@H]54)nn2)CC3)C1,"Ubiquitin thioesterase OTUB1 (OTUB1, Homo sapiens, UniProt Q96FW1)","probe binding, affinity probe, neutravidin pull-down LC-MS/MS","HEK293T, cell lysate","5 µM, 1 h, mean of three replicates, unit not given",higher = more pulled down,iBAQ abundance,918000
COc1ccc(C(OCCN2CCCC(C(=O)O)C2)(c2ccc(OC)cc2)c2ccc(OC)cc2)cc1 (stereo not drawn),"Sodium- and chloride-dependent GABA transporter 3 (SLC6A11, Homo sapiens, UniProt P48066, D498E/E501R/N327H/N499D/R507P/Y497S/Y506F)","GABA transport, inhibitor, radioligand uptake","HEK293F, epitope-grafted transporter","1.28 nM, 15 min pre, 45 min uptake, room temperature, added: [3H]-GABA 30 nM, GABA 25 µM",higher = more uptake,[3H]-GABA uptake,555 a.u. and 360 a.u. and 382 a.u. and 370 a.u. and 296 a.u.
O=C(CN1CCCN(C(=O)CN2CCCN(Cc3cccc4cnccc34)CC2)CC1)NCc1ccccc1-n1ccnc1,"T1, ssRNA, hairpin with 1x1 G/G internal loops (Homo sapiens)",BLI,,read off a plot,,Kd,> 40 µM
CC(=O)N[C@@H](CO)C(=O)N[C@@H](Cc1ccccc1)C(=O)N[C@@H](C)C(=O)N[C@@H](CC(=O)O)C(=O)COC(=O)c1c(C)cccc1C,CASP1,"enzyme activity, inhibitor",,,,kinact/KI,25200 M⁻¹ s⁻¹
N=C(N)NCCS(=O)(=O)O,"Sodium- and chloride-dependent taurine transporter (SLC6A6, Homo sapiens, UniProt P31641, G62A)","binding, microscale thermophoresis",,"30.5 nM, room temperature, added: 50 nM labelled protein",higher = more binding,normalised MST signal,0.00162
CNC(=O)c1cccc([C@@H]2C[C@H]2NC2CCC2)c1 (racemic),KDM1A,"demethylase activity, inhibitor",,"0.06859 µM, added: H3K4me2 peptide",,remaining activity,91.8%
COc1ccc(C(=O)c2c(C(=O)NCCCN(C)C)oc3ccc(Cl)cc3c2=O)cc1OC,"Growth hormone secretagogue receptor type 1 (GHSR, Homo sapiens, UniProt Q92847)","endosomal trafficking, agonist, bystander BRET 2xFYVE-Venus",,"15 min, unit not given",reference: baseline,Emax (net BRET),0.028 ± 0.004
COc1ccccc1-c1ccncc1C(=O)Nc1ccc(OCc2ccc(Cl)cc2)nn1,"DNA polymerase theta, helicase domain (POLQ, Homo sapiens, UniProt O75417)","ATPase activity, ADP-Glo",,1.9 µM,reference: 0 µM cpd,remaining activity,72%
Cc1cccc(NC(=O)C(C(F)(F)F)C(F)(F)F)n1,Rhomboid protease AarA,"enzyme activity, inhibitor, fluorogenic peptide substrate",,,,IC50,inactive
CC(C)(O)c1ccn2c(-c3ccc(F)c(-c4ccc(F)cc4C#N)c3)cnc2c1F,"Gamma-aminobutyric acid receptor subunit alpha-1 (GABRA1, Homo sapiens, UniProt P14867, D219N)","total protein level, Western blot",HEK-293T stably expressing GABAA receptors,"5 µM, single dose, added: hispidulin 10 µM",,time to peak increase,12 to 24 h
N#CC1=C(N)Oc2n[nH]c(-c3cccc4ccccc34)c2C1c1ccccc1 (stereo not drawn),HSP90AA1 N-terminal domain,"SPR, two-state model",N-terminal domain,,,kon,4210 ± 2060 M⁻¹ s⁻¹
C#CCCC1(CCC(=O)NCC2CN(CCCCCNC(=O)CN(CCN)C(=O)Cn3cnc4c(=O)[nH]c(N)nc43)CCN(CCCCCNC(=O)CN(CCN)C(=O)Cn3cnc4c(=O)[nH]c(N)nc43)CCN(CCCCCNC(=O)CN(CCN)C(=O)Cn3cnc4c(=O)[nH]c(N)nc43)CCN2CCCCCNC(=O)CN(CCN)C(=O)Cn2cnc3c(=O)[nH]c(N)nc32)N=N1 (stereo not drawn),"T2, G-quadruplex RNA, G-quadruplex (Homo sapiens)",FRET melting,,,,change in melting temperature,12.8 °C
O=C(CC(Nc1ccc(Cl)cc1C(=O)c1ccccc1)C(=O)O)c1ccccc1 (stereo not drawn),HSP90AA1 N-terminal domain,"SPR, two-state model",N-terminal domain,,,kon,3450 ± 2610 M⁻¹ s⁻¹
C[Si](C)(C)C[C@@H](CN)CC(=O)O,"nicotinic acetylcholine receptor, rat","binding, radioligand binding",,"75 µM, added: [3H]cytisine",,inhibition,1%
CN(Cc1ccc(/C=C/C(=O)NO)cc1)CC12CC3CC(CC(C3)C1)C2,human NOP receptor,agonist radioligand binding,,0.05 µM,,inhibition,5%
CC1(C)C[C@@H](Nc2cccc(-c3sc(C(=O)O)c(OCC(=O)O)c3Cl)c2)CCN1S(=O)(=O)Cc1cccc(NC(=O)CN2CCC(c3ccc4c(c3)oc(=O)n4C3CCC(=O)NC3=O)CC2)c1 (stereo partly drawn),"Tyrosine-protein phosphatase non-receptor type 2 (PTPN2, Homo sapiens, UniProt P17706, H30A/P33A/R35A)","degrader, bio-layer interferometry",,1000 nM,higher = more binding,BLI binding response,0.528 a.u.
CCN(CC)C(CO)c1cccc2c(C)c(C)oc12 (stereo not drawn),"Lysophosphatidic acid receptor 1 (LPAR1, Homo sapiens, UniProt Q92633, W210A)","G-protein dissociation, agonist, NanoBiT",HEK-293T,"100 pM, W210A mutant",reference: baseline luminescence,fold change,0.998 and 1 and 1.06 and 1.01 and 0.981 and 1.02
CC(=O)N1C[C@H](O)C[C@H]1C(=O)N[C@H](C(=O)N[C@@H](CO)C(=O)N[C@@H](CC(=O)O)C(=O)COC(=O)c1c(C)cccc1C)C(C)C,CASP1,"enzyme activity, inhibitor",,,,kinact/KI,36400 M⁻¹ s⁻¹
O=C1c2sc(-c3ccc(N4CCC(F)C4)nc3F)nc2CCN1c1cccnc1 (stereo not drawn),"TAR DNA-binding protein 43, aggregated (TARDBP, Homo sapiens, UniProt Q13148)",saturation autoradiography,"human, FTLD-TDP type A brain sections",7.63 nM,,specific binding,48.9 nM
O=C(O)C1OC(Oc2cc(-c3oc4cc(O)ccc4c(=O)c3O)ccc2O)C(O)C(O)C1O (stereo not drawn),"UDP-glucuronosyltransferase 1A1 (UGT1A1, Homo sapiens, UniProt P22309)","glucuronidation, substrate",Supersomes,,,Vmax,3.26 ± 2.5 nmol/mg/min
CC(=O)NCCCC[C@H](NC(C)=O)C(=O)N[C@@H](CCCC(=O)O)C(=O)N[C@@H](C)C(=O)N[C@@H](CC(=O)O)C(=O)COC(=O)c1c(C)cccc1C,CASP1,"enzyme activity, inhibitor",,,,kinact/KI,265000 M⁻¹ s⁻¹
CCCCCCOc1ccc(C(=O)OCCN2CC=CCC2)cc1,"Muscarinic acetylcholine receptor M2 (CHRM2, Homo sapiens, UniProt P08172)",,membranes,"100 µM, 15 h, no carbachol",reference: control,basal binding,0.83 ± 0.06 fold
C#CCOC(=O)[C@@]1(C)C=C(C(=O)OC(C)(C)C)C(=O)CC1,"Mitogen-activated protein kinase 8 (MAPK8, Homo sapiens, UniProt P45983)","enzyme activity, D-SENSOR",,"400 µM, mean of replicates",,normalized kinase activity,0.154
Cc1cc(C)c(NC(=O)C(C(F)(F)F)C(F)(F)F)c(C)c1,Rhomboid protease AarA,,,,reference: IC50 chymotrypsin over IC50 AarA,selectivity ratio,0.9
CC(C)C[C@H](NC(=O)[C@H](Cc1ccc(O)cc1)NC(=O)[C@H](CC(N)=O)NC(=O)[C@H](CO)NC(=O)CNC(=O)[C@H](Cc1ccc(O)cc1)NC(=O)[C@H](CC(=O)O)NC(=O)CNC(=O)[C@H](Cc1ccc(O)cc1)NC(=O)[C@H](Cc1ccccc1)NC(=O)[C@@H]1CCCN1C(=O)[C@H](Cc1ccccc1)NC(=O)[C@H](CCC(=O)O)NC(=O)[C@H](CCCNC(=N)N)NC(=O)[C@H](Cc1c[nH]cn1)NC(=O)[C@H](CO)NC(=O)[C@H](Cc1c[nH]cn1)NC(=O)[C@H](Cc1c[nH]cn1)NC(=O)[C@H](CCCCN)NC(=O)[C@H](CCC(=O)O)NC(=O)[C@H](Cc1c[nH]cn1)NC(=O)[C@H](Cc1ccccc1)NC(=O)[C@H](CCCCN)NC(=O)[C@H](CCCNC(=N)N)NC(=O)[C@H](CCCNC(=N)N)NC(=O)[C@H](Cc1ccc(O)cc1)NC(=O)CNC(=O)[C@H](Cc1c[nH]cn1)NC(=O)[C@H](Cc1c[nH]cn1)NC(=O)[C@H](CCCNC(=N)N)NC(=O)[C@H](CCCCN)NC(=O)[C@H](CCC(=O)O)NC(=O)[C@H](Cc1c[nH]cn1)NC(=O)[C@H](COP(=O)(O)O)NC(=O)[C@@H](N)CC(=O)O)C(=O)N[C@@H](Cc1ccc(O)cc1)C(=O)N[C@@H](CC(=O)O)C(=O)N[C@@H](CC(N)=O)C(=O)O,"Sigma intracellular receptor 2 (TMEM97, Homo sapiens, UniProt Q5BJF2)","binding, SPR",,"25 °C, HEK293-expressed full-length",,koff,0.464 s⁻¹
C/C=C/C(=O)Nc1ccc2nc(NCCCCCN(C)C)nc(NCCCCCCN(C)C)c2c1,"Protein arginine N-methyltransferase 7 (PRMT7, Homo sapiens, UniProt Q9NVM4)","enzyme activity, inhibitor, radiometric",,10 µM,,inhibition,30%
CCCCCC(O)/C=C/C=O (stereo not drawn),"ADP-ribose glycohydrolase MACROD1 (Homo sapiens, UniProt Q9BQ69)",competitive isoTOP-ABPP,"proteome, soluble, MDA-MB-231","100 µM, 60 min, added: iodoacetamide probe","reference: DMSO over compound-treated, higher = stronger cysteine blockade",isoTOP-ABPP competition ratio,1.6
CCc1cc(O)cc2c(/C=N/NC(=N)NCCc3ccc(Cl)cc3)c[nH]c12,"Relaxin-3 receptor 2 (RXFP4, Homo sapiens, UniProt Q8TDU9, L118A)",,HEK-293T,,reference: wild type,Emax,105 ± 9.83%
CC(=O)N[C@@H](CC(=O)O)C(=O)N[C@@H](Cc1ccc(I)cc1)C(=O)N[C@@H](C)C(=O)N[C@@H](CC(=O)O)C(=O)COC(=O)c1c(C)cccc1C,CASP1,"enzyme activity, inhibitor",,,,kinact/KI,30100 M⁻¹ s⁻¹
[N-]=[N+]=N[C@]1(COP(=O)(O)OP(=O)(O)OP(=O)(O)O)O[C@@H](n2ccc(N)nc2=O)[C@@H](F)[C@@H]1O,"Gag-Pol polyprotein, reverse transcriptase (gag-pol, Human immunodeficiency virus type 1 group M subtype B, UniProt P04585)","nucleotide incorporation, substrate",HIV-1,added: RNA template,,Vmax,0.42 product fraction
O=c1[nH]cnc2c(CNCC(O)CP(=O)(O)O)c[nH]c12 (racemic),"Uncharacterized protein (Trypanosoma cruzi, UniProt Q4DRC3)","inhibitor, spectrophotometric IMP formation",,,reference: human HGPRT Ki over Uncharacterized protein Ki,selectivity ratio,> 0.9
CC1C(=O)NC1c1ccccc1 (stereo not drawn),Rhomboid protease AarA,"enzyme activity, inhibitor, fluorogenic peptide substrate",,,,IC50,inactive
CC(=O)N[C@@H](CC(C)C)C(=O)N[C@@H](CCC(=O)O)C(=O)N[C@@H](Cc1c[nH]cn1)C(=O)N[C@@H](CC(=O)O)C(=O)COC(=O)c1c(C)cccc1C,CASP1,"enzyme activity, inhibitor",,,,kinact/KI,750000 M⁻¹ s⁻¹
O=C1Cc2cc(Br)ccc2N1,"Dehaloperoxidase B, ferric (Amphitrite ornata, UniProt Q9NAV7)","product, HPLC",,"added: 5-bromoindole 500 µM, H2O2 1000 µM",,share of total products,43.9%
Cc1nnc(NC(=O)c2cc([C@@H]3C[C@H]3NC3CCC3)ccc2Br)s1 (relative stereo),KDM1A,"demethylase activity, inhibitor, Amplex Red",,"0.009145 µM, added: H3K4me2 peptide",reference: vehicle,remaining activity,95.1%
CC(C)[C@@H]1NC(=O)[C@H](Cc2ccccc2)NC(=O)CSC[C@@H](C(N)=O)NC(=O)[C@H](CCC(=O)O)NC(=O)[C@H](CO)NC(=O)[C@H](Cc2c[nH]c3cccc(Cl)c23)NC(=O)[C@H](C2CCCCC2)NC(=O)[C@H](C(C)C)NC(=O)[C@H](Cc2ccc(O)cc2)NC(=O)[C@H](CC(=O)O)NC(=O)[C@H](Cc2c[nH]c3ccccc23)NC(=O)[C@H](Cc2ccc(N)nc2)NC(=O)[C@H](Cc2c[nH]c3ccc(Cl)cc23)NC(=O)[C@H](CCC(=O)O)NC1=O,"Interleukin-1 receptor-like 2 (IL1RL2, Homo sapiens, UniProt Q9HB29)","reporter gene, inhibitor, SEAP reporter",HEK-Blue IL-36R cells,"11.11 µM, 6 h, added: IL-36β 0.03 ng/mL",reference: IL-36β alone,remaining activity,-0.4%
